Experimental data pooled from the literature.
Protocols differ between the studies behind these lines. Several values in a cell are separate wells, animals, samples, runs or records. Numbers after ± are the reported error.

SMILES | tested on | assay | system | setting | endpoint | value
O=C1NC2(CC2)COc2ncc(F)cc2[C@H]2COCCN2c2ccn3ncc1c3n2 | – | – | Sprague-Dawley rat, female, adrenals | oral, 5 mg/kg/day, 4 weeks | organ weight | 0.076 ± 0.011 g
C=C/C=C/C[C@@H](C)[C@@H](O)[C@H]1C(=O)N[C@@H](CC)C(=O)N(C)CC(=O)N(C)[C@@H](CC(C)C)C(=O)N[C@@H](C(C)C)C(=O)N(C)[C@@H](CC(C)C)C(=O)N[C@@H](C)C(=O)N[C@H](C)C(=O)N(C)[C@@H](CC(C)C)C(=O)N(C)[C@@H](CC(C)C)C(=O)N(C)[C@@H](C(C)C)C(=O)N1C | – | – | Wistar Kyoto rat, male, plasma | ip, 0.5 mg/kg/day, day 18 | plasma urea level | 4.8 ± 0.5 mmol/L
COc1ccccc1C(NS(=O)(=O)c1cc2ccc(O)nc2cc1Cl)C(=O)N(CC(=O)NCCn1cc(COCCOCCOCCNc2cccc3c2C(=O)N(C2CCC(=O)NC2=O)C3=O)nn1)Cc1cccs1 (mixture of isomers) | – | fast-gradient HPLC | – | pH 7.4 | logD | 2.5
CCCCCCCCCCCCCC(=O)N[C@@H](Cc1ccccc1)C(=O)N[C@@H](Cc1ccccc1)C(=O)N[C@@H](Cc1ccccc1)C(=O)N[C@@H](Cc1ccc(O)cc1)C(=O)NCC(=O)N[C@@H](CCCNC(=N)N)C(=O)N[C@@H](CCCCN)C(=O)N[C@@H](CCCCN)C(=O)N[C@@H](CCCNC(=N)N)C(=O)N[C@@H](CCCNC(=N)N)C(=O)N[C@@H](CCC(N)=O)C(=O)N[C@@H](CCCNC(=N)N)C(=O)N[C@@H](CCCNC(=N)N)C(=O)N[C@@H](CCCNC(=N)N)C(=O)O | – | ANS fluorescence | 10 mM PBS | pH 7.4, together with: ANS 10 µM | critical aggregation concentration | ~12.5 µM
CN1Cc2cc(Cl)ccc2-n2c(nnc2C2CCN(c3cccc([18F])n3)CC2)C1 | – | – | C57BL/6 mouse male, urinary bladder | intravenous, 3.7 MBq, 5 min | tissue uptake | 3.49 ± 0.66 %ID/g
Cc1ccc(N2CCC3(CC2)CN(C)C3)cc1C(=O)N[C@H](C)c1cc(-c2cnn(C)c2)nc2ccccc12 | Vero E6 | – | – | 15.62 µM | viability | 101% and 94.3% and 98.4%
CC[C@H](C)[C@H](NC(=O)[C@H](Cc1ccc(O)cc1)NC(=O)[C@@H](NC(=O)[C@H](CCCNC(=N)N)NC(=O)[C@@H](N)CC(=O)O)C(C)C)C(=O)N[C@@H](Cc1c[nH]cn1)C(=O)N1CCC[C@H]1C(=O)O | – | – | Beagle dog, plasma | subcutaneous, 10 mg/kg/day, day 0 | elimination rate constant | 0.03 min⁻¹
Cc1ccc(N2CCN(C)[C@H](C)C2)cc1C(=O)N[C@H](C)c1cc(-c2cnn(C)c2)nc2ccccc12 | African green monkey cells | – | – | 31.25 µM | viability | 102%
CC(C)C[C@H](NC(=O)[C@H](Cc1ccccc1)NC(=O)CNC(=O)CNC(=O)[C@@H](N)Cc1ccc(O)cc1)C(=O)N[C@@H](CSCB(O)O)C(N)=O | – | RP-HPLC | PBS | concentration not given, 24 h, pH 7.4, together with: ascorbic acid 100 µM | peptide remaining intact | 57%
CC[C@H](C)[C@H](NC(=O)[C@H](CCCCN)NC(=O)CNC(=O)[C@H](CC(C)C)NC(=O)[C@H](Cc1ccccc1)NC(=O)[C@H](CCCCN)NC(=O)[C@H](CO)NC(=O)[C@H](Cc1ccccc1)NC(=O)[C@H](Cc1c[nH]c2ccccc12)NC(=O)[C@H](CCC(N)=O)NC(=O)[C@@H](NC(=O)[C@H](Cc1ccccc1)NC(=O)CCCCCNC(=O)CN1CCN(CC(=O)O)CCN(CC(=O)O)CCN(CC(=O)O)CC1)C(C)C)C(=O)N[C@@H](CCC(=O)O)C(=O)N1CCC[C@H]1C(=O)N[C@@H](CC(=O)O)C(=O)N[C@H](C(=O)N[C@@H](CO)C(=O)N[C@@H](CCC(N)=O)C(=O)N[C@H](C(=O)N[C@@H](CCC(N)=O)C(=O)N[C@@H](CC(=O)O)C(=O)N1CCC[C@H]1C(=O)N[C@@H](CC(N)=O)C(=O)N[C@@H](CC(=O)O)C(=O)N[C@@H](CCC(N)=O)C(=O)N[C@@H](Cc1ccc(O)cc1)C(=O)N[C@@H](CCC(=O)O)C(=O)N1CCC[C@H]1C(=O)N[C@@H](Cc1ccccc1)C(=O)O)C(C)C)C(C)C [copper-64 labelled] | – | dynamic PET | mouse, CT26 tumour, untreated, tumour | intravenous, 100 µCi/mouse, 2700 s | SUVmean | 0.98 SUV
Cc1ccc(CNC(=O)c2ccn3c(-c4ccc(C#N)cc4)cnc3c2)cn1 | – | metabolic stability | rat, liver microsomes | – | half-life | 1.58 h
CN(C)C(=O)c1cncc(-c2cnc3[nH]cc(-c4cc(OS(=O)(=O)F)ccc4C(F)(F)F)c3c2)c1 | – | HPLC | acetonitrile/water/DMSO | 50 µM, 37 °C, DIPEA 20 eq, together with: N-α-acetyl-lysine | reactivity half-life | > 24 h
CC(C)NCCCn1c(Sc2cc3c(cc2I)OCO3)nc2c(N)ncnc21 | – | LC-MS/MS | mouse, MDA-MB-468 xenograft, tumour | 75 mg/kg, 24 h | intratumoral concentration | 5 µM
COc1ccc([C@@H]2CC(=O)c3c(O)cc(O[C@@H]4O[C@H](CO)[C@@H](O)[C@H](O)[C@H]4O[C@@H]4O[C@@H](C)[C@H](O)[C@@H](O)[C@H]4O)cc3O2)cc1O | – | – | male Sprague-Dawley rats, obese, faeces | oral, 100 mg/kg, 48 h | cumulative faecal excretion | 13000 ± 1230 ng
CC(C)[C@@H]1NC(=O)CNC(=O)[C@H](CC(N)=O)NC(=O)[C@H](CCCNC(=N)N)NC(=O)[C@H](Cc2ccc(O)cc2)NC(=O)[C@H](C(C)C)NC(=O)[C@@H](NC(=O)[C@@H](NC(=O)[C@H](CC(N)=O)NC(=O)[C@H](Cc2c[nH]c3ccccc23)NC(=O)[C@H](C)NC(=O)[C@H](Cc2ccccc2)NC(=O)CNC(=O)[C@H](CCCCN)NC(=O)[C@H](Cc2ccccc2)NC(=O)[C@H](Cc2ccccc2)NC(=O)[C@H](CCCCN)NC(=O)OCC2c3ccccc3-c3ccccc32)C(C)C)CSSC[C@@H](C(=O)N[C@@H](Cc2c[nH]cn2)C(=O)N[C@@H](CCCNC(=N)N)C(=O)N[C@@H](CCCNC(=N)N)C(=O)N[C@@H](C)C(=O)N[C@@H](CC(N)=O)C(N)=O)NC(=O)[C@H](C(C)C)NC(=O)[C@H](CCCNC(=N)N)NC1=O | – | – | ICR mice, serum | intraperitoneal, 5 mg/kg, day 5 | AST | 25.7 ± 2.01 IU/L

A few entries again:
SMILES | tested on | assay | system | setting | endpoint | value
CC(C)NCCCn1c(Sc2cc3c(cc2I)OCO3)nc2c(N)ncnc21 | – | LC-MS/MS | mouse, MDA-MB-468 xenograft, tumour | 75 mg/kg, 24 h | intratumoral concentration | 5 µM
Cc1ccc(N2CCC3(CC2)CN(C)C3)cc1C(=O)N[C@H](C)c1cc(-c2cnn(C)c2)nc2ccccc12 | Vero E6 | – | – | 15.62 µM | viability | 101% and 94.3% and 98.4%
